Results from different studies.
Protocols differ between the studies behind these lines. ± gives the spread as reported.

| SMILES | test system | setting | tissue uptake [%ID/g] |
| --- | --- | --- | --- |
| O=C([O-])CN1CCN(CC(=O)[O-])CCN(CC(=O)NCCc2ccc3c(c2)C2C=CCC2C(c2cc4c(cc2Br)OCO4)N3)CCN(CC(=O)[O-])CC1.[111In+3] (centres unmarked) | mouse, Hec50 endometrial tumour, spleen | 1 h post injection | 1.04 ± 0.25 |
| CC(C)[C@H](NC(=O)[C@@H]1CCCN1C(=O)[C@H](CCCNC(=N)N)NC(=O)[C@H](CS)NC(=O)[C@H](Cc1c[nH]c2ccccc12)NC(=O)[C@H](CCCNC(=N)N)NC(=O)[C@@H](Cc1ccccc1)NC(=O)[C@H](Cc1c[nH]cn1)NC(=O)[C@H](CCC(=O)O)NC(=O)[C@H](CS)NC(=O)[C@H](CS)NC(=O)[C@@H]1CC(=O)N[C@@H](CCCNC(=N)N)C(=O)NCC(=O)N[C@@H](CC(=O)O)C(=O)N[C@H](Cc2ccc(O)cc2)C(=O)N1)C(N)=O [technetium-99m labelled] | C57 mouse, female, B16/F1 melanoma, blood | intravenous, 0.037 MBq, 4 h | 0.48 ± 0.32 |
| CCCC[C@H](NC(=O)CNC(=O)CNC(=O)CN1CCN(CC(=O)O)CCN(CC(=O)O)CCN(CC(=O)O)CC1)C(=O)N[C@H]1CC(=O)NCCCC[C@@H](C(N)=O)NC(=O)[C@H](Cc2c[nH]c3ccccc23)NC(=O)[C@H](CCCNC(=N)N)NC(=O)[C@@H](Cc2ccccc2)NC(=O)[C@H](Cc2c[nH]cn2)NC1=O [copper-64 labelled] | female C57 mouse, B16/F1 melanoma, brain | intravenous, 0.037 MBq, 2 h | 0.39 ± 0.22 |
| CC(C)[C@H](NC(=O)[C@@H]1CCCN1C(=O)[C@H](CCCNC(=N)N)NC(=O)[C@H](CS)NC(=O)[C@H](Cc1c[nH]c2ccccc12)NC(=O)[C@H](CCCNC(=N)N)NC(=O)[C@@H](Cc1ccccc1)NC(=O)[C@H](Cc1c[nH]cn1)NC(=O)[C@H](CCC(=O)O)NC(=O)[C@H](CS)NC(=O)[C@H](CS)NC(=O)CNC(=O)[C@@H]1CC(=O)N[C@@H](CCCNC(=N)N)C(=O)NCC(=O)N[C@@H](CC(=O)O)C(=O)N[C@H](Cc2ccc(O)cc2)C(=O)N1)C(N)=O [technetium-99m labelled] | C57 mouse, female, B16/F1 melanoma, heart | intravenous, 0.037 MBq, 2 h | 0.71 ± 0.1 |
| CCCC[C@H](NC(=O)CNC(=O)CNC(=O)CN1CCN(CC(=O)O)CCN(CC(=O)O)CCN(CC(=O)O)CC1)C(=O)N[C@H]1CC(=O)NCCCC[C@@H](C(N)=O)NC(=O)[C@H](Cc2c[nH]c3ccccc23)NC(=O)[C@H](CCCNC(=N)N)NC(=O)[C@@H](Cc2ccccc2)NC(=O)[C@H](Cc2c[nH]cn2)NC1=O [lead-203 labelled] | C57 mouse, lung | intravenous, 0.056 MBq, 24 h | 0.29 ± 0.12 |
| CCCC[C@H](NC(=O)CNC(=O)CNC(=O)CN1CCN(CC(=O)O)CCN(CC(=O)O)CC1)C(=O)N[C@H]1CC(=O)NCCCC[C@@H](C(N)=O)NC(=O)[C@H](Cc2c[nH]c3ccccc23)NC(=O)[C@H](CCCNC(=N)N)NC(=O)[C@@H](Cc2ccccc2)NC(=O)[C@H](Cc2c[nH]cn2)NC1=O [copper-64 labelled] | female C57 mouse, B16/F1 melanoma, muscle | intravenous, 0.037 MBq, 2 h | 0.29 ± 0.16 |
| CN1C(=O)[C@@H](Cc2ccc(O)c(I)c2)NC(=O)CNC(=O)[C@H](Cc2ccc3ccccc3c2)NC(=O)[C@H](CCCNC(=N)N)NC(=O)[C@H]1CCCNC(=O)c1ccc(CNC(=O)CN2CCN(CC(=O)O)CCN(CC(=O)O)CCN(CC(=O)O)CC2)cc1 [lutetium-177 labelled] | female CB-17 SCID mouse, Daudi xenograft, kidney | intravenous, 6 h, CXCR4 blocking, together with: AMD3100 2 mg/kg coinjected | 2.76 ± 0.18 |
| CN(C)c1ccc(-c2nc3ccc(OCCCCCN4CCN5CCN(CC4)CC(=O)[O][Al]([18F])[O]C(=O)C5)cc3s2)cc1 | ICR mouse, bone | intravenous, 2 min | 3.14 ± 0.57 |

For quick reference, copied from above:
| SMILES | test system | setting | tissue uptake [%ID/g] |
| --- | --- | --- | --- |
| CCCC[C@H](NC(=O)CNC(=O)CNC(=O)CN1CCN(CC(=O)O)CCN(CC(=O)O)CCN(CC(=O)O)CC1)C(=O)N[C@H]1CC(=O)NCCCC[C@@H](C(N)=O)NC(=O)[C@H](Cc2c[nH]c3ccccc23)NC(=O)[C@H](CCCNC(=N)N)NC(=O)[C@@H](Cc2ccccc2)NC(=O)[C@H](Cc2c[nH]cn2)NC1=O [lead-203 labelled] | C57 mouse, lung | intravenous, 0.056 MBq, 24 h | 0.29 ± 0.12 |
